Measurements from different studies.
A part holds a random share of what one study measured. Changes are numbered by the printed parent chain.
Sequence of UniProt O15294 (whole entry, looked up): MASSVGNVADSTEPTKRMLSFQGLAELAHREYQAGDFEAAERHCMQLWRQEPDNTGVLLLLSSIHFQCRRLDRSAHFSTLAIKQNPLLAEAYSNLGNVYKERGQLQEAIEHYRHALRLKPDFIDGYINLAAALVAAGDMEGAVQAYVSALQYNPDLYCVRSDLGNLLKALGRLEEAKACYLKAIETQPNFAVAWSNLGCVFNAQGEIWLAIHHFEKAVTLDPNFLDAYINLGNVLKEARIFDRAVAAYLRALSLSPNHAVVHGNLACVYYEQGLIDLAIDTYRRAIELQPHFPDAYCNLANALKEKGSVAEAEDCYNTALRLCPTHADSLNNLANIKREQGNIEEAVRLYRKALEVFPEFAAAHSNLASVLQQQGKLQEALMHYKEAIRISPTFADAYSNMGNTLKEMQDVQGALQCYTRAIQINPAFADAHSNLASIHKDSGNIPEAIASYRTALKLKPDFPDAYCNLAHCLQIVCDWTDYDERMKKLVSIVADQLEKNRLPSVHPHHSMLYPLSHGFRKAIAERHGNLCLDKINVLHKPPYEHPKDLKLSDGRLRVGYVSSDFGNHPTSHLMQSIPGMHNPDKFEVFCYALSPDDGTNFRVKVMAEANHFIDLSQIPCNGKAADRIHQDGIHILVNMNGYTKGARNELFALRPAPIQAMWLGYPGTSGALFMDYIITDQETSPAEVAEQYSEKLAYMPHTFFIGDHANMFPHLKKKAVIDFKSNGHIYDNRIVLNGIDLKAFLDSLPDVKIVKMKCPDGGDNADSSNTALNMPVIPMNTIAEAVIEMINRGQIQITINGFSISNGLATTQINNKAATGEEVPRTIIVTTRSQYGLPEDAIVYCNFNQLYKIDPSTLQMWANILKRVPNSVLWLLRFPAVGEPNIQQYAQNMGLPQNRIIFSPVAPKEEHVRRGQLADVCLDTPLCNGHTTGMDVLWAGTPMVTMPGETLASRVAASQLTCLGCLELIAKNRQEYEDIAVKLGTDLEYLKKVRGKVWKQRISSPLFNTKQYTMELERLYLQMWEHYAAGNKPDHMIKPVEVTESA

Series 1 — target: MAFG, bZIP domain (human); technique: DHFR protein complementation; matrix: yeast; baseline: wild-type JUN-FOS pair; direction: higher = stronger binding
Notes: single substitutions, most at no-binding floor
Parent: JUN, bZIP domain (human); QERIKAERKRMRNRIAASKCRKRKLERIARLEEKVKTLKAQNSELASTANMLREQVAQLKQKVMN; partner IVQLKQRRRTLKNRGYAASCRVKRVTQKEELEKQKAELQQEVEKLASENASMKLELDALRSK
`E32V` gave a binding fitness of -1.33 natural log.
`A49E` has a binding fitness of -1.49 natural log.
`L52V` gave a binding fitness of -1.37 natural log.
With `E33H` the binding fitness was -1.41 natural log.
For `R53F`, the binding fitness was -1.47 natural log.
`V56A` gave a binding fitness of -1.5 natural log.
With `A46K` the binding fitness was -1.5 natural log.
The binding fitness of `A46F` is reported as -1.35 natural log.

Series 2 — technique: protein-binding microarray; molecule type: double-stranded DNA, one strand shown; matrix: in vitro; tested at: not given; direction: higher = stronger binding
Target: Transcriptional repressor CTCF (CTCF, Homo sapiens, UniProt P49711, residues 1-727, full length assumed)
Notes: k-mer, scored over probes, only values ≥0.25
Residues (chain): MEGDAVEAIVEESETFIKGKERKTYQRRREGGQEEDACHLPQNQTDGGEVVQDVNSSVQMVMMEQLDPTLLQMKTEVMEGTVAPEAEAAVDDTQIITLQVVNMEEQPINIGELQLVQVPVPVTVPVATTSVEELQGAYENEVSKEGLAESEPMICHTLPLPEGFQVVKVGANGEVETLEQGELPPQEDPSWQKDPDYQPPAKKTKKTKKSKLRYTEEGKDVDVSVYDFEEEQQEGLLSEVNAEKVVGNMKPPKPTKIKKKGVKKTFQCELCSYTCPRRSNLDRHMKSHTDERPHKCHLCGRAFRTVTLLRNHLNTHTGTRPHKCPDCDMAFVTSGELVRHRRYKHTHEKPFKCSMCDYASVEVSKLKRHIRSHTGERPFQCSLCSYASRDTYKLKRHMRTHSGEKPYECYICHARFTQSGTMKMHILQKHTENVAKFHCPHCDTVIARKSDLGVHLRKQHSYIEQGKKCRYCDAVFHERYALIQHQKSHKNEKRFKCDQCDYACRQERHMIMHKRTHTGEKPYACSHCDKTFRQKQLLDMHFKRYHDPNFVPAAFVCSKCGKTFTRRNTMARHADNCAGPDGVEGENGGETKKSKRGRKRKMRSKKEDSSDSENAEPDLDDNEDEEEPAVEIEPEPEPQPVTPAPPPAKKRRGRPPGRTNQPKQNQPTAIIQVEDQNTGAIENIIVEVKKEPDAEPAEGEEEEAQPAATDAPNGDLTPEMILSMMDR
With `ATATATGA` the E-score was 0.283.
The E-score of `TGTAATAA` is reported as 0.309.
With `CGCGCGTC` the E-score was 0.311.
The E-score of `CGTACGTA` is reported as 0.259.
`CAGCGCCA` has an E-score of 0.292.
`GATATTAC` has an E-score of 0.267.
`AGGTATAT` gave an E-score of 0.29.
`AGCGCATA` has an E-score of 0.31.

Mixed results
P1: viral docking peptide; KGVKRKLFAEDSS; partner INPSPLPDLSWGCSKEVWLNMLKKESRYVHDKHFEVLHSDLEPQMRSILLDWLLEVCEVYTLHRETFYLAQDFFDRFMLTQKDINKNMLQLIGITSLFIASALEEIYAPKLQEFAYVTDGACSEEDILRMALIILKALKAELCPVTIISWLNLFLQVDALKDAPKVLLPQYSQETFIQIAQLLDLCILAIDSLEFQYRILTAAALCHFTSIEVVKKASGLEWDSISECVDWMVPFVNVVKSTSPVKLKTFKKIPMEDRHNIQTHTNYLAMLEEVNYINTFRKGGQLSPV
For `P1 L7K`, “normalised enrichment score” read 0.464 (CCNE2, cyclin fold, Cln2 fusion (human); yeast growth competition, sequencing; yeast; strong parent motif; baseline: not given, higher = stronger binding).
`HLEQHMHHMIHKYAN` — result for “minimum log2 enrichment ratio”: 1.68 (OGT (Homo sapiens, UniProt O15294); binding, phage display NGS; peptide; baseline: input library).

Repeated from above (series 2):
With `CGCGCGTC` the E-score was 0.311.
The E-score of `CGTACGTA` is reported as 0.259.
`CAGCGCCA` has an E-score of 0.292.
